{"data": "Measurements of several laboratories", "note": "Numbered parts are unrelated; each lists some results of a single study."}
{"data": "Sample 1", "cell line": "HEK-293T/ACE2", "tested at": "10 µM", "time": "16 h", "reference": "vehicle"}
{"Compound": "NC(=O)c1cnccn1", "viability [%]": 101}
{"Compound": "Nc1nc2c(ncn2COCCO)c(=O)[nH]1", "viability [%]": 101}
{"Compound": "c1ccc2[nH]c(-c3cscn3)nc2c1", "viability [%]": 100}
{"data": "Sample 2", "target": "Sal-like protein 4, full length isoform A (SALL4, Homo sapiens, UniProt Q9UJQ4, residues 1-1053)", "technique": "universal PBM", "molecule type": "double-stranded DNA, one strand shown", "medium": "in vitro", "tested at": "600 nM", "setting": "8-mer, flanks averaged, mean of replicates", "direction": "higher = stronger binding", "chain of UniProt Q9UJQ4 (whole entry, looked up)": "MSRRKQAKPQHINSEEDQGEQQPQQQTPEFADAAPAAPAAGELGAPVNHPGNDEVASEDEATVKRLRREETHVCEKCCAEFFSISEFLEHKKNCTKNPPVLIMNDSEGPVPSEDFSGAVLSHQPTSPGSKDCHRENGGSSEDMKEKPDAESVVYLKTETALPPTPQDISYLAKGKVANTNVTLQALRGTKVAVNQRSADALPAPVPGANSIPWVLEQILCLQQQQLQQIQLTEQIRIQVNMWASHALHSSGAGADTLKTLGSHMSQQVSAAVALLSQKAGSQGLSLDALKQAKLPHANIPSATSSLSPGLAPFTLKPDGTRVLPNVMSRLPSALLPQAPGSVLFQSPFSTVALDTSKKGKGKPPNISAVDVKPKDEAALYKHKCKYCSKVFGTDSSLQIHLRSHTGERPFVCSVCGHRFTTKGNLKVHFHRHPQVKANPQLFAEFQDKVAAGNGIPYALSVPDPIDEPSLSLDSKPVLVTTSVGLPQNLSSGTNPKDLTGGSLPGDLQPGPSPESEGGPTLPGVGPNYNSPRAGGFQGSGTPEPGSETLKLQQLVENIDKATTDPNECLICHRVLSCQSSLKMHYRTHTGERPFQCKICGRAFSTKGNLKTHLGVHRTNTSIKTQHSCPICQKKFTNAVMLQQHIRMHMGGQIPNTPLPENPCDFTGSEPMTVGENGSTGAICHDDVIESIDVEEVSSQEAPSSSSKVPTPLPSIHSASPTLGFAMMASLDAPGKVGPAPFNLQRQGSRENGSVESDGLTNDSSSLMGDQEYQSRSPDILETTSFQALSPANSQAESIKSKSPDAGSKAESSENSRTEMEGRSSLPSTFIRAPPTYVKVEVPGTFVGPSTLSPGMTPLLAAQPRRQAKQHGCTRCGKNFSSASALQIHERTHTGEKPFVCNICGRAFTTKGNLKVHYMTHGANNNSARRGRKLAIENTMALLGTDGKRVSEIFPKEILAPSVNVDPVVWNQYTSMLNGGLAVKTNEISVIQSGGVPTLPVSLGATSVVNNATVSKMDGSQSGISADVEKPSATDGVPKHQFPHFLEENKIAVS"}
{"Sequence": "CAATCGCA", "E-score": 0.0276}
{"Sequence": "ATAGGCAC", "E-score": 0.0732}
{"Sequence": "CCACGTCC", "E-score": -0.268}
{"Sequence": "CCGGGAGA", "E-score": -0.259}
{"Sequence": "AACAACAA", "E-score": 0.226}
{"Sequence": "ATTTCGTC", "E-score": 0.226}
{"Sequence": "ACGCACTG", "E-score": -0.183}
{"Sequence": "ATTTGCTG", "E-score": 0.223}
{"data": "Sample 3", "target": "Histone acetyltransferase KAT6A, both winged helices, GST fusion (KAT6A, Homo sapiens, UniProt Q92794, residues 1-181)", "technique": "protein binding microarray", "molecule type": "double-stranded DNA, one strand shown", "medium": "in vitro", "tested at": "not given", "setting": "8-mer, flanks averaged, mean of 2 arrays, mostly near background", "reference": "not given", "direction": "higher = stronger binding", "Residues (chain)": "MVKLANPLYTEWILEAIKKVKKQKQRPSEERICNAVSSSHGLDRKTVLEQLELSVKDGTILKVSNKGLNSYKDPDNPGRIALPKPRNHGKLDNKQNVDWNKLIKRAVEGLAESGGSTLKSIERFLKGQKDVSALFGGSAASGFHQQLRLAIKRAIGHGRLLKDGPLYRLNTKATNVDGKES"}
{"Sequence": "ACTGCCAG", "E-score": -0.0482}
{"Sequence": "AATAACAG", "E-score": 0.13}
{"Sequence": "CTTGGATA", "E-score": 0.0629}
{"Sequence": "AATATCCT", "E-score": -0.0792}
{"Sequence": "ATCCAATA", "E-score": -0.0986}
{"Sequence": "TACCCAAA", "E-score": -0.151}
{"Sequence": "ATTAAACA", "E-score": -0.105}
{"Sequence": "GGTGTAAC", "E-score": 0.185}
{"data": "Sample 4", "target": "Replicase polyprotein 1ab, polymerase (rep, Severe acute respiratory syndrome coronavirus 2, UniProt P0DTD1)", "effect on": "enzyme activity", "action": "inhibitor", "tested at": "20 µM"}
{"SMILES": "CCN(CC)Cc1ccc2cc(COC(=O)Nc3ccc(C(=O)NO)cc3)ccc2c1", "inhibition": "-0.24%"}
{"SMILES": "Clc1cccc(Nc2nnc(-c3ccccc3)c3ccccc23)c1", "inhibition": "-3.88%"}
{"SMILES": "CCOC(=O)Nc1ccc(NCc2ccc(F)cc2)nc1N", "inhibition": "-2.61%"}
{"SMILES": "OC[C@H]1NC[C@@H](O)[C@@H](O)[C@@H]1O", "inhibition": "1.9%"}
{"SMILES": "Cc1ccc(Cl)c(Nc2ccccc2C(=O)O)c1Cl", "inhibition": "26.9%"}
{"SMILES": "CC(C(=O)O)c1ccc2c(c1)Cc1ccccc1-2 (stereo not shown)", "inhibition": "-1.89%"}
{"SMILES": "CN(C)CCCN1c2ccccc2Sc2ccc(Cl)cc21", "inhibition": "17.6%"}
{"SMILES": "Cc1c(CN2CCN(C(=O)[C@H](C)O)CC2)sc2c(N3CCOCC3)nc(-c3cnc(N)nc3)nc12", "inhibition": "-2.75%"}
{"SMILES": "O=C(O)CC[C@H]1CC[C@@](c2cc(F)ccc2F)(S(=O)(=O)c2ccc(Cl)cc2)CC1", "inhibition": "-1.27%"}
{"SMILES": "CN(C)CCn1cc(S(=O)(=O)c2cccc(F)c2)c2cccnc21", "inhibition": "1.09%"}
{"SMILES": "CN1CCc2c(c3ccccc3n2Cc2ccc(C(=O)NO)cc2)C1", "inhibition": "-0.84%"}
{"SMILES": "NCCCC[C@H](NC(=O)[C@@H](Cc1cc(Br)c(O)c(Br)c1)NC(=O)N1CCC(N2Cc3ccccc3NC2=O)CC1)C(=O)N1CCN(c2ccncc2)CC1", "inhibition": "1.31%"}
{"SMILES": "C[C@]12C=CC(=O)C=C1CC[C@@H]1[C@@H]2C(=O)C[C@@]2(C)[C@H]1CC[C@]2(O)C(=O)CO", "inhibition": "1.21%"}
{"SMILES": "CN1C(=O)COc2c(C(=O)NC3CN4CCC3CC4)cc(Cl)cc21 (stereo not shown)", "inhibition": "-1%"}
{"SMILES": "CC(SC(=O)c1cccs1)C(=O)NCC(=O)O (stereo not shown)", "inhibition": "-2.96%"}
{"SMILES": "CC(O)(C(=O)Nc1ccc(S(=O)(=O)c2ccccc2)cc1)C(F)(F)F (stereo not shown)", "inhibition": "2.48%"}
{"SMILES": "O=C(O)CCCCCCCCCCCCCCc1ccc(I)cc1", "inhibition": "-3.52%"}
{"SMILES": "CCCCC(CC)COc1ccc(-c2nc(-c3ccc(OC)cc3)nc(-c3ccc(OCC(CC)CCCC)cc3O)n2)c(O)c1 (stereo not shown)", "inhibition": "-9.23%"}
{"SMILES": "COc1ccc(CNC(=O)/C=C/c2ccc3[nH]cc(CCN(C)C)c3c2)cc1", "inhibition": "-11.4%"}
{"SMILES": "CCCCCCCCCCCCCCCCCC(=O)OCC(O)CO (stereo not shown)", "inhibition": "-8.44%"}
{"SMILES": "COC(=O)c1cc(OC)c2c(c1-c1c(C(=O)OC)cc(OC)c3c1OCO3)OCO2", "inhibition": "-0.48%"}
{"SMILES": "COc1ccc([C@]2(O)CC[C@@H](N3CC[C@@H](NC(=O)CNC(=O)c4cccc(C(F)(F)F)c4)C3)CC2)cn1", "inhibition": "3.64%"}
{"SMILES": "CCOCOC[C@H](C[C@H](C)C(=O)NO)NC(=O)c1ccc(Oc2ccccc2)cc1", "inhibition": "-6.98%"}
{"SMILES": "Nc1ncnc2c1c(-c1cccc(OCc3ccccc3)c1)cn2C1CC(CN2CCCC2)C1 (stereo in doubt)", "inhibition": "-10.1%"}
{"SMILES": "O=c1[nH]nc(Sc2ncc([N+](=O)[O-])s2)n1-c1ccc2c(c1)OCCO2", "inhibition": "-14.3%"}
{"data": "Sample 5", "target": "Replicase polyprotein 1ab, main protease (rep, Severe acute respiratory syndrome coronavirus 2, UniProt P0DTD1)", "effect on": "enzyme activity", "action": "inhibitor", "tested at": "20 µM", "setting": "hit confirmation, no DTT"}
{"Compound": "CC[n+]1c(-c2ccccc2)c2cc(N)ccc2c2ccc(N)cc21", "inhibition [%]": 60.2}
{"Compound": "Oc1cccc(-c2c3nc(c(-c4cccc(O)c4)c4ccc([nH]4)c(-c4cccc(O)c4)c4nc(c(-c5cccc(O)c5)c5ccc2[nH]5)CC4)C=C3)c1", "inhibition [%]": 77.8}
{"Compound": "COc1cccc2c1C(=O)c1c(O)c3c(c(O)c1C2=O)C[C@@](O)(/C(CO)=N/NC(=O)CCCCCN1C(=O)C=CC1=O)C[C@@H]3O[C@H]1C[C@H](N)[C@H](O)[C@H](C)O1", "inhibition [%]": 101}
{"data": "Sample 6", "target": "Fragile X messenger ribonucleoprotein 1, C-terminal low-complexity region (Fmr1, Mus musculus, UniProt P35922)", "technique": "RNA Bind-n-Seq", "molecule type": "RNA", "medium": "in vitro", "tested at": "200 nM", "setting": "whole 134-nt RNA, ends assumed", "together with": "150 mM LiCl", "reference": "input library", "direction": "higher = stronger binding", "all molecules": "7-deaza-guanosine replaces G", "shared flanks, not repeated": "GGGAGUUCUACAGUCCGACGAUC … UGGAAUUCUCGGGUGUCAAGG"}
{"Sequence": "UGGCCCUGGUGGCAUGCGGGGAGGAAGAGGUGGCCUCAUGGAUCGUGGUGGUCCCGGUGGAAUGUUCAGAGGUGGCCGUGGUGGAGACAC", "log2 enrichment": 0.26}
{"Sequence": "UCCUGUGCUACACAUCGUAUGUACCGAAUCGGGGAAAAAAGGAAAAAAGGAAAAAAGGGAAAGUAUUAUGUUACGCCGUUCGGAUCUGCA", "log2 enrichment": 0.0259}
{"Sequence": "UCCUGUGCUACACAUCGUAUGUACCGAAUCGGGAAAAAAAGGGUUUUUGGGAAAAAGGGAAAGUAUUAUGUUACGCCGUUCGGAUCUGCA", "log2 enrichment": -1.28}
{"Sequence": "UGCCGAUUCGGAAGUCCUUGAGGAGCGUCAGAAGCGGCUUCCCUACGUCCCAGAGCCCUAUUACCCGGAAUCUGGAUGGGACCGCCUCCG", "log2 enrichment": -1.17}
{"Sequence": "CCUCAAGUCCUGUGCUACACAUCGUAUGUACCGAAUCGGGAGGGAGGGUGGGAAAGUAUUAUGUUACGCCGUUCGGAUCUGCACUUCCAG", "log2 enrichment": -1.31}
{"Sequence": "CAAGUCCUGUGCUACACAUCGUAUGUACCGAAUCGGGAAAGGGAAAGGGAAAGGGAAAGUAUUAUGUUACGCCGUUCGGAUCUGCACUUC", "log2 enrichment": -0.79}
{"Sequence": "GUCCUGUGCUACACAUCGUAUGUACCGAAUCAAACCCAAAUUUUUUUAAACCCCCAAAAAAGUAUUAUGUUACGCCGUUCGGAUCUGCAC", "log2 enrichment": 1.06}
{"Sequence": "UGGGAGGUGGAUUGUGUUUAUUUUUUUAGCUCAUUUCCAGGGGUGGGAAUUUUUUUUUAAUAUGUGUCAUGAAUAAAGUUGUUUUUGAAA", "log2 enrichment": 1.09}
